Experimental data from different studies.
Parts stem from different laboratories: compare values within a part only. Changes are numbered by the printed parent chain.
Chain of UniProt O14920 (whole entry, looked up): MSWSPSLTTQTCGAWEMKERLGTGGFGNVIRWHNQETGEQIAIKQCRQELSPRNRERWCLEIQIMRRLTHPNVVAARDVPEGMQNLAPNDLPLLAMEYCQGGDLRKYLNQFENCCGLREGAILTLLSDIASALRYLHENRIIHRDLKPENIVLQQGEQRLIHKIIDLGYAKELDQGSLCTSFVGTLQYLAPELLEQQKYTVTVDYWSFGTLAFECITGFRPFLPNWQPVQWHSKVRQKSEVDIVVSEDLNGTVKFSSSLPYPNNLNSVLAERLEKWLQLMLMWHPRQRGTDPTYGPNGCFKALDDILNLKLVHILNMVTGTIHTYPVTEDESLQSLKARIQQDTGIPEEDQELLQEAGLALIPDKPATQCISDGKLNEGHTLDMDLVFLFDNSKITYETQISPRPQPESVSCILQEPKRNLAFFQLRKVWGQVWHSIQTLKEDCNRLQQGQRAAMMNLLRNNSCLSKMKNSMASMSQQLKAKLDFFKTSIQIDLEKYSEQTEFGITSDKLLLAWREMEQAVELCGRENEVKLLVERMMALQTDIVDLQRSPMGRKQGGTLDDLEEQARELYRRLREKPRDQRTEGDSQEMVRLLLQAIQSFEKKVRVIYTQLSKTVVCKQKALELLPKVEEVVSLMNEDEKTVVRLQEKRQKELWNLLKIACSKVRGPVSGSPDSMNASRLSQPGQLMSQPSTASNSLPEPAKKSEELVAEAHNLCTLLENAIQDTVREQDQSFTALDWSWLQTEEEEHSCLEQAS

Set 1 — method: protein-binding microarray; molecule type: double-stranded DNA, one strand shown; medium: in vitro; concentration: not given; direction: higher = stronger binding
Target: Runt-related transcription factor 1 (RUNX1, Homo sapiens, UniProt Q01196, residues 1-453, full length assumed)
Chain of UniProt Q01196 (whole entry, looked up): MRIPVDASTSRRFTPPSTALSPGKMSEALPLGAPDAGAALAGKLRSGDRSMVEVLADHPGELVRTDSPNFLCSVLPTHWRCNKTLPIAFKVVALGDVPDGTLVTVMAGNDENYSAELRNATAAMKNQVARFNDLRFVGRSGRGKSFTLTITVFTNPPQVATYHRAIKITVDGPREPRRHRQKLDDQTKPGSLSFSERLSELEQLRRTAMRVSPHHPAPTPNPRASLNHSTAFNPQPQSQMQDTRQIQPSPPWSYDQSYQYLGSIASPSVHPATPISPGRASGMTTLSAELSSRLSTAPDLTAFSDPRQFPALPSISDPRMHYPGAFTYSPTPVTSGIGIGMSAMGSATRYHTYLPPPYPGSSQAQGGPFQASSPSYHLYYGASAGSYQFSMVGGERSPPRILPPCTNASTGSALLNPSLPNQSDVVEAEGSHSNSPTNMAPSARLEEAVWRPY
Setting: k-mer, scored over probes, only values ≥0.25
Sequence | E-score
GACCGCA | 0.48
CACACAA | 0.29
ACCACCA | 0.375
CTAACCA | 0.3
AAAGTGG | 0.259
CCGCAAC | 0.464
ACCCACA | 0.34
ACCACAG | 0.398

Set 2 — target: CCNE2, cyclin fold, Cln2 fusion (human); method: yeast growth competition, sequencing; medium: yeast; setting: strong parent motif; baseline: not given; direction: higher = stronger binding
Starting sequence: CDC25A docking peptide (human); PPHRRRLLFACSP
Change | normalised enrichment score
PPHRIRLLFACSP [R5I] | 1.67
PPHRMRLLFACSP [R5M] | 1.21
PPHRRRLNFACSP [L8N] | 3.59
PPHRRALLFACSP [R6A] | 0.767
PPHRRRRLFACSP [L7R] | 1.3
PPHRRRLLFACEP [S12E] | 2.46
PPHARRLLFACSP [R4A] | 1.5
PPHRRFLLFACSP [R6F] | 0.425

Set 3 — method: universal PBM; molecule type: double-stranded DNA, one strand shown; medium: in vitro; concentration: not given; direction: higher = stronger binding
Target: Sal-like protein 4, full length isoform B (SALL4, Homo sapiens, UniProt Q9UJQ4-2, residues 1-616)
Setting: 8-mer, flanks averaged, mean of replicates
Construct (chain): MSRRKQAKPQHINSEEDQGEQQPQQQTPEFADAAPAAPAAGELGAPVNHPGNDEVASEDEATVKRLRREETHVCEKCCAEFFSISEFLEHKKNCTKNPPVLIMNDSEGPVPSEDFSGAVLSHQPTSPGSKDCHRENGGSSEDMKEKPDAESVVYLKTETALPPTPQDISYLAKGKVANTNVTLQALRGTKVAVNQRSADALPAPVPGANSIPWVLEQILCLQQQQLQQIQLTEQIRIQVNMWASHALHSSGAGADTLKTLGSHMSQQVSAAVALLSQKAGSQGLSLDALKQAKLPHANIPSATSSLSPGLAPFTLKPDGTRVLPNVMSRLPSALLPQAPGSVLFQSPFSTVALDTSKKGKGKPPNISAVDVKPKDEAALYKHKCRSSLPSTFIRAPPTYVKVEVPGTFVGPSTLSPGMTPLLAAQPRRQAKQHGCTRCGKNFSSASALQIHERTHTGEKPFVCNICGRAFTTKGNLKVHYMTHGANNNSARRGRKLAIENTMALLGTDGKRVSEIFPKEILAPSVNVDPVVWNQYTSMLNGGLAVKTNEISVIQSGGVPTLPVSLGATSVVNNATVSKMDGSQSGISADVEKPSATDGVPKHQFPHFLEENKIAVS
Sequence | E-score
CATTTTCC | 0.196
CATTAGGA | 0.12
CAGGGCAG | -0.209
CAACCTAG | -0.0439
ATATTCGG | 0.232
GAGAAGGA | -0.0947
AAGTCTGA | 0.0194
AAAGTTGA | 0.142

Other studies, line by line
Structure (SMILES) | target | assay | conditions | scale | quantity | value
CCCCc1c(-c2ccc(O)cc2)[nH]c2nccnc12 | Inhibitor of nuclear factor kappa-B kinase subunit beta (IKBKB, Homo sapiens, UniProt O14920) | enzyme activity, inhibitor | 0.5 µM | baseline: control | remaining activity | 103%

A few entries again (set 3):
Sequence | E-score
GAGAAGGA | -0.0947
AAGTCTGA | 0.0194
AAAGTTGA | 0.142
